# Measured values of several laboratories.
# Numbered parts are unrelated; each lists some results of a single study. ± marks the error that the study gave.
# Sequence of UniProt Q00535 (whole entry, looked up): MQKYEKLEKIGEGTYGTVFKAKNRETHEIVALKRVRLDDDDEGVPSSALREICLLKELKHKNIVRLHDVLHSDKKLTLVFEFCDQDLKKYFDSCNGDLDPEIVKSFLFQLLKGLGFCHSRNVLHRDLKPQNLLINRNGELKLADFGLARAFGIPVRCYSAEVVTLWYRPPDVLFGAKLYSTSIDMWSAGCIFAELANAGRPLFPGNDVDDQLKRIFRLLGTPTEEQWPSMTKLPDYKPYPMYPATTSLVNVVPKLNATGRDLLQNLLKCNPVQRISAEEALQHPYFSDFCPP

# Set 1 — cell line: CYB5R4 knockout human cells; effect on: PP4 interaction; method: 3xFLAG-PP4C IP-MS; tested at: concentration not given; reference: CYB5R4 KO over parental
Substance,log2 fold change
PSMC1 (human),-0.76
human UBR4,0.25
human RNA helicase A,-0.71
human EEF1G,0.23
"prohibitin-2, human",-0.31
PTBP1 (human),-0.7
human CHD5,-2.41
cyclophilin B (human),-3.15

# Set 2 — method: sequencing of bound RNA; form: RNA; setting: motif only; all molecules: ssRNA
# Target: U2AF2 148-342 (Homo sapiens, UniProt P26368)
# Sequence of UniProt P26368 (whole entry, looked up): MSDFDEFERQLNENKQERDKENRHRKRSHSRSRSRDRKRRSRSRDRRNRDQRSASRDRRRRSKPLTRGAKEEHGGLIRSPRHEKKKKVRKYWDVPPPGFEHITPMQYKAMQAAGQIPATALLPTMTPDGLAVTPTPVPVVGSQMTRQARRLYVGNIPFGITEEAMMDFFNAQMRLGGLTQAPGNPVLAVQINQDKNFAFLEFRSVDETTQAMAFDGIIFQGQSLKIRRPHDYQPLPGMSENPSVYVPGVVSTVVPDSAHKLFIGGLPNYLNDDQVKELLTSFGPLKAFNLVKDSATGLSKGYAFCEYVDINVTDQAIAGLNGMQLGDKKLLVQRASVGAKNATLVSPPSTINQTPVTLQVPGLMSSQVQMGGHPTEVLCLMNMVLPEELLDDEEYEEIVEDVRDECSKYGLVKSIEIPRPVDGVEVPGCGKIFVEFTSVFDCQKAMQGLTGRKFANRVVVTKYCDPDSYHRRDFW
Strand,Kd [nM]
UACAUUUUU,530
GUUCUUUAA,3910
GUAGGCAUU,2290
AUAAUUUCU,3960
GUUUUCUUC,4490
CCUCUAGUU,1780
GGAGGGGAG,2010
AUAUUGCUU,3680

# Further values, each from its own experiment
# SPT15 full length assumed: SPT15 full length assumed (Saccharomyces cerevisiae, UniProt P13393)
# Sequence of UniProt P13393 (whole entry, looked up): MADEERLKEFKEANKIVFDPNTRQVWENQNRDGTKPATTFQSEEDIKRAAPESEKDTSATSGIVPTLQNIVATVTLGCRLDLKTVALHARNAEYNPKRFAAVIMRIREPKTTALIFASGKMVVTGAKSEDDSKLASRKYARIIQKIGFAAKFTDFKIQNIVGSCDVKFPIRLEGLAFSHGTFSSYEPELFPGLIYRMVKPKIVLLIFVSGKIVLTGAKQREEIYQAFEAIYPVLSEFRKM
Substance,target,assay,system,setting,scale,measurement,result
TCTTTTCTTGCTTAAATCTATAACTACAAAAAACATCAAGTCAATCGGTCC (dsDNA; 5'-amino-C6 primer),SPT15 full length assumed,array,"double-stranded DNA, one strand shown",TBP alone,,Kd,32.6 ± 2.19 nM
KEAFWDRCLSVINIMSSKMLQINA,"Cyclin-dependent kinase 5, with p25 (CDK5, Homo sapiens, UniProt Q00535)","phosphotransferase activity, radiometric",peptide,"concentration not given, 10% DMSO, with: histone substrate",reference: p5-WT peptide,activity change,18%
TGCATAAGATTTGGTCCAGTACTCGCAGGAAATGGTCAAGTCAATCGGTCC (dsDNA; 5'-amino-C6 primer),SPT15 full length assumed,array,"double-stranded DNA, one strand shown",TBP alone,,Kd,25.6 ± 1.8 nM

# Repeated from above (further values, each from its own experiment):
Substance,target,assay,system,setting,scale,measurement,result
TGCATAAGATTTGGTCCAGTACTCGCAGGAAATGGTCAAGTCAATCGGTCC (dsDNA; 5'-amino-C6 primer),SPT15 full length assumed,array,"double-stranded DNA, one strand shown",TBP alone,,Kd,25.6 ± 1.8 nM
TCTTTTCTTGCTTAAATCTATAACTACAAAAAACATCAAGTCAATCGGTCC (dsDNA; 5'-amino-C6 primer),SPT15 full length assumed,array,"double-stranded DNA, one strand shown",TBP alone,,Kd,32.6 ± 2.19 nM
